# Measured values from different studies.
# Every numbered part comes from another study and shows a few of its results, in no order. Several values in a cell are separate wells, animals, samples, runs or records.
# Chain of UniProt Q92918 (whole entry, looked up): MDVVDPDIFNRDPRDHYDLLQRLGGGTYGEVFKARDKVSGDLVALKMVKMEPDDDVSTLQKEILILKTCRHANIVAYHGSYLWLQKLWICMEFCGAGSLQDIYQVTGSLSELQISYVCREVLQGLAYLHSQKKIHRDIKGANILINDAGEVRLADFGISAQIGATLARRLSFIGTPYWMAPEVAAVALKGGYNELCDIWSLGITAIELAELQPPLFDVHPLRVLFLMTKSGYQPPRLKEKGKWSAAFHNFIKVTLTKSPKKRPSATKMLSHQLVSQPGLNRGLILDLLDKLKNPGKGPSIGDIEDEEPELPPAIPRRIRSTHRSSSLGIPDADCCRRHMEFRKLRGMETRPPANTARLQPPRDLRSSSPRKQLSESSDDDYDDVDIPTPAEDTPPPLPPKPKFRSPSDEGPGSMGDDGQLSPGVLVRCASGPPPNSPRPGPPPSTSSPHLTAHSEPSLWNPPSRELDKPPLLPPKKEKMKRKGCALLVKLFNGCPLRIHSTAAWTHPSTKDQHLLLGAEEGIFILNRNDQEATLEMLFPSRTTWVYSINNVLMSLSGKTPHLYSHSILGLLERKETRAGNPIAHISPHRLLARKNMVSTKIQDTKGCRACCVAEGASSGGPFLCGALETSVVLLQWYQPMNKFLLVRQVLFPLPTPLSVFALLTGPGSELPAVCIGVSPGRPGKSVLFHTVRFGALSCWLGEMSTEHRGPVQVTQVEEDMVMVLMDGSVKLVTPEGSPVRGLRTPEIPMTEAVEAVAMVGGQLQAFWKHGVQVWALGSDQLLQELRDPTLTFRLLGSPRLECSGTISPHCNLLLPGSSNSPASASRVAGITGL
# Chain of UniProt Q9Y6E0 (whole entry, looked up): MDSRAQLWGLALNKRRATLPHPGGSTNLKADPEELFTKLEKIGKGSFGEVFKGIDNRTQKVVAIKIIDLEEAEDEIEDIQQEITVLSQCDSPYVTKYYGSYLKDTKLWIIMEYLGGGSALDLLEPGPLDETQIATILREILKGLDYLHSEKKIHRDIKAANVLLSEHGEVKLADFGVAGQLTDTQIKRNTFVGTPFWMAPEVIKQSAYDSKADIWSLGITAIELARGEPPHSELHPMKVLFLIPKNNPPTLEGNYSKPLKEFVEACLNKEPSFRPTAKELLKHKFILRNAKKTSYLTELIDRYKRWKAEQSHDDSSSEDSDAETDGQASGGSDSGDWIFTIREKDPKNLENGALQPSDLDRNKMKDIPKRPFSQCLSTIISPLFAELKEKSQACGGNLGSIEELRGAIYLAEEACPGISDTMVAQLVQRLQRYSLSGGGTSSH
# Chain of UniProt Q9Y616 (whole entry, looked up): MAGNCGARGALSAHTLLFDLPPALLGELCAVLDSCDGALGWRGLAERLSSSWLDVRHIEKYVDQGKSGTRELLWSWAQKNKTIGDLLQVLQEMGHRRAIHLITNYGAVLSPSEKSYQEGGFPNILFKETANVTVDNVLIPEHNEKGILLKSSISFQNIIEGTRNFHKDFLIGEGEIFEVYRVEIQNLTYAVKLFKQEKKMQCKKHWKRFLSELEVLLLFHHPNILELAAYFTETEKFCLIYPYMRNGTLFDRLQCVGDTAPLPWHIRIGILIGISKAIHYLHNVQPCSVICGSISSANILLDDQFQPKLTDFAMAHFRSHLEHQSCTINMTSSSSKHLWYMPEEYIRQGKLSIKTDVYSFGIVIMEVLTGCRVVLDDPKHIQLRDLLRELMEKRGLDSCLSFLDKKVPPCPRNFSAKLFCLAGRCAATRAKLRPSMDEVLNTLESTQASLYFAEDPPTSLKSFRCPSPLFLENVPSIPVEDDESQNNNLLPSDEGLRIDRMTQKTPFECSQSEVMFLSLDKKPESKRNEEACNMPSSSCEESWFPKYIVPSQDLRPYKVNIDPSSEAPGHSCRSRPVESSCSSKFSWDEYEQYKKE
# Chain of UniProt O14578 (whole entry, looked up): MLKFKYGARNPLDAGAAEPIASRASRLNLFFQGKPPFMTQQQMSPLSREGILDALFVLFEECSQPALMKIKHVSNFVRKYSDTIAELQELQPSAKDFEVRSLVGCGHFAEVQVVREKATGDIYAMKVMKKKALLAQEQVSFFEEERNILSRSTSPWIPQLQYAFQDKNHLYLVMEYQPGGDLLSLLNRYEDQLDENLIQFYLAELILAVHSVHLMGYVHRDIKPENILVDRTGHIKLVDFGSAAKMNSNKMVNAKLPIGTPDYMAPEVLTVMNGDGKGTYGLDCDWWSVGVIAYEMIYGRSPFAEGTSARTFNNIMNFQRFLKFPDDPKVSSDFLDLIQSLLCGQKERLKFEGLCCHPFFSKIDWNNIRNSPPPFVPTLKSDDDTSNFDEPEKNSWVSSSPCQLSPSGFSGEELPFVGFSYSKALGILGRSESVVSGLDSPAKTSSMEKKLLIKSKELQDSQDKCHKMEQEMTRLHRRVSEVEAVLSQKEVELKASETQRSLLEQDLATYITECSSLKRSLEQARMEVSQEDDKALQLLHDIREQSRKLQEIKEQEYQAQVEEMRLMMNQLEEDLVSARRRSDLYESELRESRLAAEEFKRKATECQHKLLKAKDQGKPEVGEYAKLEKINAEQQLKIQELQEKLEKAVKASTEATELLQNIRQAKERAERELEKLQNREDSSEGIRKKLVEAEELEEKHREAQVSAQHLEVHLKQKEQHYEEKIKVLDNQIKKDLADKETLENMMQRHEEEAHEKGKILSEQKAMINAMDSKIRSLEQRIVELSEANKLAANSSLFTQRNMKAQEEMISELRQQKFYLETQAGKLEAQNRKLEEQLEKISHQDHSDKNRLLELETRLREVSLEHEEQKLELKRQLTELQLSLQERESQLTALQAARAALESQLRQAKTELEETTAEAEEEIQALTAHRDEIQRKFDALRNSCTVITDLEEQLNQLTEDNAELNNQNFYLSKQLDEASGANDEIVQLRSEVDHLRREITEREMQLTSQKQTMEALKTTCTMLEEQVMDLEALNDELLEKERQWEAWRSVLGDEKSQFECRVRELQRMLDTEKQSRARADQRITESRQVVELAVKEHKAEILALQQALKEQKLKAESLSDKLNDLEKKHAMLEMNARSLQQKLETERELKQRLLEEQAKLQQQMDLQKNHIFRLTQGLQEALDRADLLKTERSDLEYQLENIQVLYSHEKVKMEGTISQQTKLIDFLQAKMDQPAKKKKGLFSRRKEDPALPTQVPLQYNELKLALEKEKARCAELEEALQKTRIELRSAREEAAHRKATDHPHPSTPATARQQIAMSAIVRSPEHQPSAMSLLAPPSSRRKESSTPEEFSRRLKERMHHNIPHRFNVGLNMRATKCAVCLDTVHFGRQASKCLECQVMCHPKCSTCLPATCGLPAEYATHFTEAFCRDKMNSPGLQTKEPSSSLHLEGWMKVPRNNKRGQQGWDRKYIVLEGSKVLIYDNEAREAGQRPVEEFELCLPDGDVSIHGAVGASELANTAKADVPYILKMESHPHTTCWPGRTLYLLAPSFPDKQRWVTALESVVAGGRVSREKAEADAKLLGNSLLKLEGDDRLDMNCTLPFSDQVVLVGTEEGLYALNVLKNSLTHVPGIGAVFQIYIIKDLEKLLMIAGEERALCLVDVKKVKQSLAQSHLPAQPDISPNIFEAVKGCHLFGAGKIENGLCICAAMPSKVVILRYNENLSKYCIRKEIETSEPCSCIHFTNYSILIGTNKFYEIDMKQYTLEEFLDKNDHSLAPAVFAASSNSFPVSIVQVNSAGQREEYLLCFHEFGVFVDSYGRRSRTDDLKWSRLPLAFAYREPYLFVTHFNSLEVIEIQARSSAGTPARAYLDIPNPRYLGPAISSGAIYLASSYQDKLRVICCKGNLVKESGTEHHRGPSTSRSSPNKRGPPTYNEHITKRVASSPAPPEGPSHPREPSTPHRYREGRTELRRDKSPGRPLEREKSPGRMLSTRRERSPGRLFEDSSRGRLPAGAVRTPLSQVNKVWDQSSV
# Chain of UniProt Q07002 (whole entry, looked up): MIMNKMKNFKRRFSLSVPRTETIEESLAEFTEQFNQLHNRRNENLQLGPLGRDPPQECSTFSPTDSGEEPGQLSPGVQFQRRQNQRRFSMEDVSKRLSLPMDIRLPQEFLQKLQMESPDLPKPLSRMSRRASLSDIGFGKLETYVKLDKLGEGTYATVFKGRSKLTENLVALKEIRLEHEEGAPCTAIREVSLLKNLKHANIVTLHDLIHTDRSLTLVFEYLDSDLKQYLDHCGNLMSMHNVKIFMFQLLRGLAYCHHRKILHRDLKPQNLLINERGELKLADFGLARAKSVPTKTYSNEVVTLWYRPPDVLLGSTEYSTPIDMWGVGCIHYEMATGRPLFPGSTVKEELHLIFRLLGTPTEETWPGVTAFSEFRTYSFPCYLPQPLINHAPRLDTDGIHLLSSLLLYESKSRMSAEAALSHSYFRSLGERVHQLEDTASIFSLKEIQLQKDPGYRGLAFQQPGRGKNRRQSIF

# Set 1
# Target: MAP kinase-interacting serine/threonine-protein kinase 1 (MKNK1, Homo sapiens, UniProt Q9BUB5)
# Chain of UniProt Q9BUB5 (whole entry, looked up): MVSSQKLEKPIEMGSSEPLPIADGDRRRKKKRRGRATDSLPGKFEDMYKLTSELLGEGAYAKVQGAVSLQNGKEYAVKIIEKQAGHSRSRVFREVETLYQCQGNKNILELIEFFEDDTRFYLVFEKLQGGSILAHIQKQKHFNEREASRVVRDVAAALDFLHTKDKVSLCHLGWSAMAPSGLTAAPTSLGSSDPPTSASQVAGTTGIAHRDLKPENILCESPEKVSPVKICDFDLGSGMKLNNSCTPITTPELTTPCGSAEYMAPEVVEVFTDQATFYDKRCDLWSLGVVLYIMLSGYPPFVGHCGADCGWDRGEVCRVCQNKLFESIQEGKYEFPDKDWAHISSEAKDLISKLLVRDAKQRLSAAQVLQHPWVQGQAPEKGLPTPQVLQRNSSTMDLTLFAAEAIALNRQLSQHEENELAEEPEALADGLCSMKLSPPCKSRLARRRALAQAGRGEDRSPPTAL
# Observed: enzyme activity
# Mode: inhibitor
# Concentration: 0.5 µM
# Reference: control
Structure (SMILES),remaining activity
N#Cc1cnc2cnc(NCc3cccnc3)cc2c1Nc1ccc(F)c(Cl)c1,73.2%
O=C1Cc2c([nH]c3ccc(Br)cc23)-c2ccccc2N1,98.4%
Cc1ccc(S(=O)(=O)/C=C/C#N)cc1,99.4%
O=C(c1cc2cc(O)ccc2[nH]1)c1cc2cc(O)ccc2[nH]1,83.6%
CCCCc1c(-c2ccc(OC)cc2)[nH]c2nccnc12,97.7%

# Set 2
# Structure (SMILES): O=C(NCCCC1CCCCC1)c1ccc(CNC(=O)c2cnn(-c3ccccc3)c2C(F)(F)F)cc1
# Concentration: 0.1 µM
target,observed,technique,remaining binding [%]
"Cytoplasmic tyrosine-protein kinase BMX (BMX, Homo sapiens, UniProt P51813)",cell-free assay,competition with immobilised ligand,75
"Aurora kinase C (AURKC, Homo sapiens, UniProt Q9UQB9)",cell-free assay,competition with immobilised ligand,100
"Receptor-type tyrosine-protein kinase FLT3 (FLT3, Homo sapiens, UniProt P36888, D835V)",cell-free assay,competition with immobilised ligand,88
"Mitogen-activated protein kinase kinase kinase kinase 1 (MAP4K1, Homo sapiens, UniProt Q92918)",cell-free assay,competition with immobilised ligand,100
"Calcium/calmodulin-dependent protein kinase type 1B (PNCK, Homo sapiens, UniProt Q6P2M8)",cell-free assay,competition with immobilised ligand,79
"Protein kinase C iota type (PRKCI, Homo sapiens, UniProt P41743)",cell-free assay,competition with immobilised ligand,100
"Serine/threonine-protein kinase ICK (CILK1, Homo sapiens, UniProt Q9UPZ9)",cell-free assay,competition with immobilised ligand,79
"Interleukin-1 receptor-associated kinase 3 (IRAK3, Homo sapiens, UniProt Q9Y616)",cell-free assay,competition with immobilised ligand,100
"Tyrosine-protein kinase ABL1, non-phosphorylated (ABL1, Homo sapiens, UniProt P00519, T315I)",cell-free assay,competition with immobilised ligand,80
"Cyclin-dependent kinase 18 (CDK18, Homo sapiens, UniProt Q07002)",cell-free assay,competition with immobilised ligand,100
"Tyrosine-protein kinase Srms (SRMS, Homo sapiens, UniProt Q9H3Y6)",cell-free assay,competition with immobilised ligand,93
"Dual specificity mitogen-activated protein kinase kinase 7 (MAP2K7, Homo sapiens, UniProt O14733)",cell-free assay,competition with immobilised ligand,100
"Citron Rho-interacting kinase (CIT, Homo sapiens, UniProt O14578)",cell-free assay,competition with immobilised ligand,86
"Mast/stem cell growth factor receptor Kit (KIT, Homo sapiens, UniProt P10721, L576P)",cell-free assay,competition with immobilised ligand,100
"Serine/threonine-protein kinase SIK1 (SIK1, Homo sapiens, UniProt P57059)",,competition binding,91
"Myosin light chain kinase, smooth muscle (MYLK, Homo sapiens, UniProt Q15746)",cell-free assay,competition with immobilised ligand,100
"Serine/threonine-protein kinase 24 (STK24, Homo sapiens, UniProt Q9Y6E0)",cell-free assay,competition with immobilised ligand,100
"Tyrosine-protein kinase JAK1, JH2 (JAK1, Homo sapiens, UniProt P23458)",cell-free assay,competition with immobilised ligand,89

# Set 3
# Organism: Sarcocystis neurona
# Observed: parasite growth
# Concentration: 10 µM
# Time: 96 h
# Setting: first screen
# Reference: untreated
Compound,log2 fold change
CCN(CC)CC(=O)Nc1c(C)cccc1C,0.21
N[C@@H](C(=O)N[C@@H]1C(=O)N2C(C(=O)O)=C(CSc3c[nH]nn3)CS[C@H]12)c1ccc(O)cc1,-0.0475
C[C@@H]1CN(CCCn2c3ccccc3c3ccccc32)C[C@H](C)N1,-0.38
O=C(O)Cc1ccccc1Nc1c(Cl)cccc1Cl,0.09

# Set 4
# Cell line: mouse MPNST tumor cells
# Technique: high-content nuclear imaging
# Refers to: cell number
# Concentration: 10 µM
# Time: 12 h
# Setting: mean of 2 replicates
# Reference: plate mean
# Direction: higher = more cells
Structure (SMILES),nuclei count
CCN(Cc1ccccc1)C(=O)Cn1c(=O)n(C)c2cnc(-c3ccccc3)nc21,3.3 z-score
COc1ccc(COc2ccc(CC#N)cc2)cc1,2.4 z-score
CC[N+](C)(C)c1cccc(O)c1,3.64 z-score
C[C@]12C=CC(=O)C=C1CC[C@H]1[C@@H]3C[C@@H](O)[C@](O)(C(=O)CO)[C@@]3(C)C[C@H](O)[C@@]12F,5.85 z-score
CN1C(C)(C)CCCC1(C)C,1.36 z-score
C/C=C1\C(=O)C[C@H]2[C@@H]3CCC4=CC(=O)CC[C@]4(C)[C@H]3CC[C@]12C,-2.16 z-score
Clc1ccc(NN=C(c2ccccc2)c2ccccn2)nc1,-4.29 z-score
CNCCCC1c2ccccc2C=Cc2ccccc21,-3.5 z-score
NCCc1c[nH]cn1,2 z-score and 0.439 z-score
Cc1nc(Nc2ncc(C(=O)Nc3c(C)cccc3Cl)s2)cc(N2CCN(CCO)CC2)n1,-5.06 z-score
CO[C@H]1O[C@@H]2O[C@@]3(C)CC[C@H]4[C@H](C)CC[C@@H]([C@H]1C)[C@@]24OO3,0.536 z-score

# Other studies, line by line
Compound,cell line,test,setting,how to read,quantity,value
CC(C)S(=O)(=O)c1ccc2nccc(Nc3ccc4sc(C5CCCC5)nc4c3)c2c1.Cl,L929,"caspase activity, Ac-DEVD-pNA absorbance","50 µM, 2 h",higher = more activity,caspase-3 activity,0.046 a.u. and 0.018 a.u. and 0.034 a.u. and 0.038 a.u. and 0.013 a.u.

# Repeated from above (set 2):
target,observed,technique,remaining binding [%]
"Tyrosine-protein kinase ABL1, non-phosphorylated (ABL1, Homo sapiens, UniProt P00519, T315I)",cell-free assay,competition with immobilised ligand,80
"Tyrosine-protein kinase Srms (SRMS, Homo sapiens, UniProt Q9H3Y6)",cell-free assay,competition with immobilised ligand,93
